Published values of several laboratories.
± gives the spread as reported.
Mc1r: Melanocyte-stimulating hormone receptor (Mc1r, Mus musculus, UniProt Q01727)
Ptger2: Prostaglandin E2 receptor EP2 subtype (Ptger2, Rattus norvegicus, UniProt Q62928)
DRD2: D(2) dopamine receptor (DRD2, Homo sapiens, UniProt P14416)

| Molecule | target | test | system | setting | EC50 |
| --- | --- | --- | --- | --- | --- |
| CCCC[C@H](NC(=O)[C@H](CO)NC(=O)[C@H](Cc1ccc(O)cc1)NC(=O)[C@H](CO)NC(C)=O)C(=O)N[C@@H](CCC(=O)O)C(=O)N[C@@H](Cc1c[nH]cn1)C(=O)N[C@H](Cc1ccccc1)C(=O)N[C@@H](CCCNC(=N)N)C(=O)N[C@@H](Cc1c[nH]c2ccccc12)C(=O)NCC(=O)N[C@@H](C)C(=O)N1CCC[C@H]1C(=O)N[C@H](C(N)=O)C(C)C | Mc1r | – | – | – | 0.01 ± 0.003 nM |
| O=c1cc(-c2ccc(O)c(O)c2)oc2cc(O)cc(O)c12 | Kcnh1 (Mus musculus, UniProt Q60603) | V1/2 shift, inside-out patch clamp | Xenopus oocytes | – | 4700 ± 2400 nM |
| CCCC[C@H](NC(=O)[C@H](CO)NC(=O)[C@H](C)NC(=O)[C@H](CO)NC(C)=O)C(=O)N[C@@H](CCC(=O)O)C(=O)N[C@@H](Cc1c[nH]cn1)C(=O)N[C@H](Cc1ccccc1)C(=O)N[C@@H](CCCNC(=N)N)C(=O)N[C@@H](Cc1c[nH]c2ccccc12)C(=O)NCC(=O)N[C@@H](CCCCN)C(=O)N1CCC[C@H]1C(=O)N[C@H](C(N)=O)C(C)C | Mc1r | – | – | – | 0.028 ± 0.006 nM |
| CCC#CC[C@H](C)[C@H](O)/C=C/[C@H]1CCC(=O)N1CCCCCCC(=O)O | Ptger2 | reporter gene, agonist | – | – | > 10000 nM |
| CC(C)c1nc2cc(OCCCCN3CCN(c4cccc(Cl)c4Cl)CC3)ccc2s1 | DRD2 | cAMP, agonist, luciferase | – | – | 72 nM |
| CCCCC[C@H](O)/C=C/[C@H]1CCC(=O)[C@@H]1CCCCCCC(=O)O | Ptger2 | cAMP, agonist | – | – | 617 nM |
| CSCC[C@H](NC(=O)[C@H](CO)NC(=O)[C@H](Cc1ccc(O)cc1)NC(=O)[C@H](CO)NC(C)=O)C(=O)N[C@@H](CCC(=O)O)C(=O)N[C@@H](Cc1c[nH]cn1)C(=O)N[C@@H](Cc1ccccc1)C(=O)N[C@@H](CCCNC(=N)N)C(=O)N[C@@H](Cc1c[nH]c2ccccc12)C(=O)N[C@@H](C)C(=O)N[C@@H](CCCCN)C(=O)N1CCC[C@H]1C(=O)N[C@H](C(N)=O)C(C)C | Mc1r | – | – | – | 25 ± 4.8 nM |
| CC(C)c1nc2cc(OCCCCN3CCC(c4cccc(Cl)c4Cl)CC3)ccc2s1 | DRD2 | cAMP, agonist, luciferase | – | – | 72 nM |
| CCc1c(C)nc(-n2nc(C)cc2NC(=O)c2ccccc2SC)[nH]c1=O | Tubulin alpha-1A/beta chain (Sus scrofa, UniProt P02550+P02554) | tubulin polymerization, promoter, turbidity at 340 nm | porcine tubulin | 37 °C, added: 3 mg/mL tubulin | 11000 ± 3200 nM |
| Nc1cc(-c2nc3c(c(NCc4ccccc4)n2)CC(N)CC3)ccn1 (stereo not drawn) | BAM complex (Escherichia coli) | OmpT folding, inhibitor | proteoliposomes | added: OmpT and SurA | 39700 nM |
| CCCCCCCC(=O)OC[C@H](COP(=O)(O)O[C@H]1[C@H](O)[C@@H](O)[C@H](OP(=O)(O)O)[C@@H](O)[C@H]1O)OC(=O)CCCCCCC | Trpv1 (Rattus norvegicus, UniProt O35433) | agonist, inside-out patch clamp | plasma membrane inner leaflet | – | ~1 mol % |
| Clc1nc2cc(OCCCCN3CCN(c4cccc(Cl)c4Cl)CC3)ccc2s1 | DRD2 | cAMP, agonist, luciferase | – | – | 43 nM |
| Nc1nc(Cl)nc2c1ncn2[C@H]1C[C@H](O)[C@@H](COP(=O)(O)OP(=O)(O)O)O1 | Ribonucleoside-diphosphate reductase large subunit (Homo sapiens, UniProt P23921) | – | – | – | 1700 ± 500 nM |
| Cc1cnc(Nc2ccc(N3CCN(C)CC3)cc2)nc1Nc1cccc(S(=O)(=O)NC(C)(C)C)c1 | Fibroblast growth factor 14, homodimer (Homo sapiens, UniProt Q92915) | FGF14 homodimerisation, enhancer, luciferase complementation | – | 10-point dose response | 7600 nM |
| Thio-NADP sodium | PGC-1α/ERRα (human) | reporter gene, agonist, luciferase reporter | – | – | 20000 nM |
| CSCC[C@H](NC(=O)[C@H](CO)NC(=O)[C@H](Cc1ccc(O)cc1)NC(=O)[C@H](CO)NC(C)=O)C(=O)N[C@@H](CCC(=O)O)C(=O)N[C@@H](Cc1c[nH]cn1)C(=O)N[C@@H](Cc1ccccc1)C(=O)N[C@@H](C)C(=O)N[C@@H](Cc1c[nH]c2ccccc12)C(=O)NCC(=O)N[C@@H](CCCCN)C(=O)N1CCC[C@H]1C(=O)N[C@H](C(N)=O)C(C)C | Mc1r | – | – | – | 6240 ± 3740 nM |
| O=C(Nc1ccccn1)C12CC1/C(=N\O)c1ccccc1O2 (single isomer, unassigned; (-)) | GRM4 (Homo sapiens, UniProt Q14833) | calcium mobilisation, positive allosteric modulator | CHO hmGluR4/Gqi5 | added: glutamate EC20 | 380 nM |
| CCC1=C(O)c2c(oc(-c3csc4c(O)cccc34)cc2=O)C(CC)(CC)C1=O | Tubulin alpha-1B chain/TUBB2B (Bos taurus, UniProt P81947+Q6B856) | – | – | – | 4100 nM |
| CCCCCC(O)C=CC1CCC(=O)N1CCCCCCC(=O)O (stereo not drawn) | Ptger2 | cAMP, agonist | – | – | > 10000 nM |
| CCCCC1CN2C(=N1)C(N)=Nc1ccccc12 (stereo not drawn) | TLR8 (Homo sapiens, UniProt Q9NR97) | reporter gene, agonist | – | – | 3050 nM |
| Cc1nc(N)sc1CCCNC(=N)NCCCCCCCCCCCCNC(=N)N | HRH4 (Homo sapiens, UniProt Q9H3N8) | GTPγS binding, agonist | – | cell membranes | 30200 nM |
| Cc1nc2ccc(OCCCCN3CCN(c4cccc(Cl)c4Cl)CC3)cc2s1 | DRD2 | cAMP, agonist, luciferase | – | – | 29 nM |
| CCCC[C@H](NC(=O)[C@H](CO)NC(=O)[C@H](Cc1ccc(O)cc1)NC(=O)[C@H](CO)NC(C)=O)C(=O)N[C@@H](CCC(=O)O)C(=O)N[C@@H](Cc1c[nH]cn1)C(=O)N[C@H](Cc1ccccc1)C(=O)N[C@@H](C)C(=O)N[C@@H](Cc1c[nH]c2ccccc12)C(=O)NCC(=O)N[C@@H](CCCCN)C(=O)N1CCC[C@H]1C(=O)N[C@H](C(N)=O)C(C)C | Mc1r | – | – | – | 0.14 ± 0.08 nM |
| BP(=O)(OC[C@H]1O[C@@H](n2ccc(=O)[nH]c2=O)[C@H](O)[C@@H]1O)OP(=O)(O)OP(=O)(O)OP(=O)(O)OC[C@H]1O[C@@H](n2ccc(=O)[nH]c2=O)[C@H](O)[C@@H]1O (stereo partly drawn) | P2Y purinoceptor 6 (Rattus norvegicus, UniProt Q63371) | calcium signal, agonist, fluorescence | – | – | 3900 nM |

A few entries again:
| Molecule | target | test | system | setting | EC50 |
| --- | --- | --- | --- | --- | --- |
| Cc1cnc(Nc2ccc(N3CCN(C)CC3)cc2)nc1Nc1cccc(S(=O)(=O)NC(C)(C)C)c1 | Fibroblast growth factor 14, homodimer (Homo sapiens, UniProt Q92915) | FGF14 homodimerisation, enhancer, luciferase complementation | – | 10-point dose response | 7600 nM |
| Thio-NADP sodium | PGC-1α/ERRα (human) | reporter gene, agonist, luciferase reporter | – | – | 20000 nM |
